Experimental data pooled from the literature.
Each numbered part is a random draw from the data of one study; scales do not carry over between parts. Positions count from the first letter of the parent shown.

Series 1 — method: universal PBM; molecule type: double-stranded DNA, one strand shown; medium: in vitro; concentration: not given; reading: higher = stronger binding
Target: Sal-like protein 4, full length isoform B (SALL4, Homo sapiens, UniProt Q9UJQ4-2, residues 1-616)
Notes: 8-mer, flanks averaged, mean of replicates
Residues (chain): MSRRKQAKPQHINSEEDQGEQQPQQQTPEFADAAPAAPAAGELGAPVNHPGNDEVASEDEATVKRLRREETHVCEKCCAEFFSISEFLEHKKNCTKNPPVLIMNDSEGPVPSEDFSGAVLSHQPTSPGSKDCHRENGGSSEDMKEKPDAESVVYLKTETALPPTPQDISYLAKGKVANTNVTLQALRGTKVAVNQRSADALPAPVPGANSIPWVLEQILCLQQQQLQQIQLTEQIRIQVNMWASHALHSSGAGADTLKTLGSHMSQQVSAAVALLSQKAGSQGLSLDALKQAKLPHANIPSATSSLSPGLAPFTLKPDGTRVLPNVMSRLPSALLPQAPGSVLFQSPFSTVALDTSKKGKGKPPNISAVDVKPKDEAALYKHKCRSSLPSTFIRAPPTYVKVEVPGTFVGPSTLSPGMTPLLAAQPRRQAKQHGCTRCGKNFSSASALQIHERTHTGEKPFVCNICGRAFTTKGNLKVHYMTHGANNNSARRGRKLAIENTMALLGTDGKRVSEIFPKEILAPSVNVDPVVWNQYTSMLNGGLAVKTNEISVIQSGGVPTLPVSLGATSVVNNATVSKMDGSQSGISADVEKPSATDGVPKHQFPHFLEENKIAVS
Sequence	E-score
GCTAAGGA	-0.248
AAATAACC	0.168
CATTGCGA	0.115
CTGGCATA	-0.0206
AAGAATCT	-0.0175
GGGGCCTA	-0.321
GGTCGGTA	-0.142
CGCTGTTA	-0.046

Series 2 — target: CCNA1, cyclin fold, Cln2 fusion (human); method: yeast growth competition, sequencing; medium: yeast; notes: weak parent motif; reference: not given; reading: higher = stronger binding
Parent: SCAPER docking peptide (human); SNARRSLNFGGST
Change	normalised enrichment score
N2S	0.621
R4D	0.33
R5I	0.232
L7N	0.184
N2C	0.389
N2E	0.761

Series 3 — method: DHFR PCA, deep sequencing; medium: yeast; added: (+)-ABA 200 µM; reference: wild-type fitted maximum; reading: higher = stronger binding
Target: ABI1, truncated, D143A, DHFR fusion (Arabidopsis thaliana)
Notes: methotrexate growth selection, single substitutions
Parent: PYL1, truncated, DHFR fusion (Arabidopsis thaliana); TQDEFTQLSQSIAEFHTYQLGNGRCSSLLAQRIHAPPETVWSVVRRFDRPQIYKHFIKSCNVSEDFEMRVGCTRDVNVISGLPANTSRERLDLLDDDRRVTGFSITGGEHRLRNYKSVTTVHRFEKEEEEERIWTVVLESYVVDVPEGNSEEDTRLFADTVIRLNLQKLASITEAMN; partner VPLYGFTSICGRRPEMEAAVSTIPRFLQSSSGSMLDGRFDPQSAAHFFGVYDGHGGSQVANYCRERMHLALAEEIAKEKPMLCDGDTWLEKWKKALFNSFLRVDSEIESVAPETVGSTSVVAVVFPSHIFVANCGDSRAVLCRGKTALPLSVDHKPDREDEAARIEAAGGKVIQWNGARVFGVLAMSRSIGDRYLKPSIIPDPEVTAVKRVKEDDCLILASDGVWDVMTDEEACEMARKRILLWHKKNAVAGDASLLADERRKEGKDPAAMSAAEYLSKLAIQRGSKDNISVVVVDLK
Change	relative binding score [%]
C72P	16.6
S140R	4
F103K	-9.38
V121S	7.5
R132T	113
R163C	66.6

Mixed results
Substance	target	test	system	setting	scale	endpoint	result
PhoQ, residues 284 288 289 292 302 303 SIHLQL	PhoP, residues 12 14 15 18 19 LYFRQ (Escherichia coli, UniProt P23836)	Sort-seq, refers to: YFP reporter	E. coli	PhoQ-PhoP variant library, added: 10 µM Mg2+	reference: high Mg2+ state, higher = stronger signaling	fold induction	5.44

A few entries again (series 2):
Change	normalised enrichment score
N2C	0.389
N2E	0.761
